Measured values pooled from the literature.
Protocols differ between the studies behind these lines. ± gives the spread as reported.

Compound	cell line	test	system	setting	how to read	quantity	result
Cc1c(C)c(C)[c-](C)c1C.Fc1c[c-]c(-c2ccccn2)cc1.[Cl-].[Ir+3]	A2780	ICP-MS, item: iridium in cytoskeletal fraction		IC50		iridium share in fraction	9.8%
NCCCC[C@H](NC(=O)[C@H](Cc1ccccc1)NC(=O)[C@H](CCCCN)NC(=O)[C@H](Cc1ccccc1)NC(=O)[C@H](CCC(=O)O)NC(=O)[C@H](Cc1ccccc1)NC(=O)[C@H](CCC(=O)O)NC(=O)[C@@H](N)Cc1ccccc1)C(=O)O	hMSC	RP-HPLC	hydrogel, serum-free medium	day 12, hydrogel 25 mg/mL, 20 mM	relative to: day 0	intact peptide remaining	8.4 ± 1.4%
O=C(CCC(=O)OCCNC(=O)[C@H](Cc1ccccc1)NC(=O)[C@H](Cc1ccccc1)NC(=O)Cc1ccc2ccccc2c1)NCCS(=O)(=O)O	SK-OV-3	LC-MS, item: precursor		50 µM, 4 h, 37 °C		intracellular concentration	62 µM
CC[C@H](C)[C@H](NC(=O)[C@H](CCC(=O)O)NC(=O)CNC(=O)[C@@H](NC(=O)[C@H](CC(C)C)NC(=O)[C@H](CC(C)C)NC(=O)[C@H](CC(C)C)NC(=O)[C@H](CC(C)C)NC(=O)[C@H](CS)NC(=O)[C@H](CO)NC(=O)[C@H](Cc1ccccc1)NC(=O)CNC(=O)[C@H](CCCNC(=N)N)NC(=O)[C@@H]1CCCN1C(=O)[C@H](C)NC(=O)[C@H](CCSC)NC(=O)CNC(=O)CNC(=O)[C@H](Cc1ccccc1)NC(=O)[C@H](CCCCN)NC(=O)[C@H](Cc1c(C)cc(O)cc1C)NC(=O)[C@H](N)CCCNC(=N)N)[C@@H](C)O)C(=O)N[C@@H](CC(=O)O)C(=O)N[C@@H](CC(C)C)C(=O)N1CCC[C@H]1C(=O)N[C@H](C(=O)N[C@@H](CCCCN)C(=O)N[C@@H](CCCNC(=N)N)C(=O)N[C@@H](CCCNC(=N)N)C(=O)N[C@@H](C)C(N)=O)C(C)C	mouse erythrocytes			10 µM, 1 h, 37 °C		hemolysis	3.3%
CC(=O)N[C@@H](Cc1c[nH]cn1)C(=O)N[C@@H](CCCNC(=N)N)C(=O)N[C@@H](CCCNC(=N)N)C(=O)N[C@@H](CCCNC(=N)N)C(=O)N[C@@H](CCCNC(=N)N)C(=O)N[C@@H](CCCNC(=N)N)C(=O)N[C@@H](CCCNC(=N)N)C(=O)N[C@@H](CCCNC(=N)N)C(=O)N[C@@H](CCCNC(=N)N)C(=O)N[C@@H](Cc1c[nH]cn1)C(N)=O	mouse erythrocytes			up to 250 µM		hemolysis	~100%
O=c1c(Nc2ccc(Br)cc2)c(NC2CCN(Cc3ccccc3)CC2)c1=O	SH-SY5Y	MTT		6.25 µM, 24 h		viability	101 ± 1.44%
CC=C(C)C(=O)OC1C(O)C2OC(COC(=O)CCC(=O)CCCCCCC(CCCCC)OC3OC(C)C(O)C(O)C3O2)C1OC(=O)C=Cc1ccccc1 (stereo not drawn)	Jurkat	cytotoxicity				IC50	0.139 µM
O=c1c2cc3ccccc3cc2nc(SCc2ccc(Cl)cc2)n1Cc1ccccc1	BGM	morphology and trypan blue		72 h		maximum non-toxic concentration	50 µg/mL
CC(C)C[C@H](NC(=O)[C@H](CCCCN)NC(=O)[C@H](CC(C)C)NC(=O)[C@H](CC(C)C)NC(=O)[C@H](CCCCN)NC(=O)[C@H](CCCCN)NC(=O)[C@H](CC(C)C)NC(=O)[C@H](CC(C)C)NC(=O)[C@H](CCCCN)NC(=O)[C@H](CC(C)C)NC(=O)[C@H](CC(C)C)NC(=O)[C@H](CCCCN)NC(=O)[C@H](CCCCN)NC(=O)[C@H](CC(C)C)NC(=O)[C@@H](N)CSSC[C@H](N)C(=O)N[C@@H](CC(C)C)C(=O)N[C@@H](CCC(=O)O)C(=O)N[C@@H](CCC(=O)O)C(=O)N[C@@H](CC(C)C)C(=O)N[C@@H](CC(C)C)C(=O)N[C@@H](Cc1c[nH]cn1)C(=O)N[C@@H](Cc1c[nH]cn1)C(=O)N[C@@H](CC(C)C)C(=O)N[C@@H](CCC(=O)O)C(=O)N[C@@H](CCC(=O)O)C(=O)N[C@@H](CC(C)C)C(=O)N[C@@H](CC(C)C)C(=O)N[C@@H](Cc1c[nH]cn1)C(=O)N[C@@H](Cc1c[nH]cn1)C(N)=O)C(N)=O	mouse erythrocytes			200 µM, 1 h, 37 °C	relative to: Triton X-100	hemolysis	~11.3%
CC1C(=NOCc2cc(-c3ccc(Cl)cc3)no2)C(C)C(c2ccc(Br)cc2)OC1c1ccc(Br)cc1 (stereo not drawn)	human PBMC	cytotoxicity, MTT				IC50	489 µg/mL
CCS(=O)(=O)N1CC(CC#N)(n2cc(-c3ncnc4[nH]ccc34)cn2)C1	Calu-3, infected	alamarBlue		24 h post infection		CC50	> 20 µM
O=c1c(NCc2ccc(O)cc2)c(NC2CCN(Cc3ccccc3)CC2)c1=O	SH-SY5Y	MTT		6.25 µM, 24 h		viability	103 ± 2.01%
CCn1c(SCc2cccc(OC)c2)nc2cc3ccccc3cc2c1=O	BGM	morphology and trypan blue		72 h		maximum non-toxic concentration	55 µg/mL
O=C(CCCC[C@@H]1SC[C@@H]2NC(=O)N[C@@H]21)NCCCC[C@@H](NC(=O)[C@@H](Cc1ccccc1)NC(=O)[C@@H](Cc1ccccc1)NC(=O)Cc1ccc2ccccc2c1)C(=O)N[C@H](Cc1ccc(OP(=O)(O)O)cc1)C(=O)O	HS5	dephosphorylation, item: D1-B		3 h		conversion	19.2%
CCc1ccc(Nc2c(NC3CCN(Cc4ccccc4)CC3)c(=O)c2=O)cc1	SH-SY5Y	MTT		6.25 µM, 24 h		viability	88.1 ± 2.02%
CC(C)C[C@@H](NC(=O)CCNc1ccc([N+](=O)[O-])c2nonc12)C(=O)N[C@H](CC(C)C)C(=O)N[C@H](CC(C)C)C(=O)N[C@H](CC(C)C)C(=O)N[C@H](Cc1ccc(OP(=O)(O)O)cc1)C(=O)O	SJSA-1			200 µM, 4 h		nuclear concentration	1680 ± 18 µM
Cn1c(=S)[nH]c2cc3ccccc3cc2c1=O	BGM	morphology and trypan blue		72 h		maximum non-toxic concentration	60 µg/mL
COc1ccc(Nc2c(NC3CCN(Cc4ccccc4)CC3)c(=O)c2=O)cc1	SH-SY5Y	MTT		12.5 µM, 24 h		viability	102 ± 1.57%
CN(C)c1ccc2c(c1)Oc1cc(N(C)C)ccc1C21OC(=O)c2cc(C(=O)NCC(=O)N[C@H](CCCNC(=N)N)C(=O)N[C@H](CCCCN)C(=O)N[C@H](CCCCN)C(=O)N[C@H](CCCNC(=N)N)C(=O)N[C@H](CCCNC(=N)N)C(=O)N[C@H](CCC(N)=O)C(=O)N[C@H](CCCNC(=N)N)C(=O)N[C@H](CCCNC(=N)N)C(=O)N[C@H](CCCNC(=N)N)C(=O)O)ccc21	BHK-21			10 µM, 60 min, 4 °C, TAMRA-labelled	relative to: 37 °C	uptake reduction	~12%
COC(=O)C1=CO[C@@H](OC(C)=O)[C@@H]2C(Cn3cc(CCBr)nn3)=CC[C@H]12	SK-N-SH	MTT		0.075 to 0.6 µM, 24 h, added: H2O2		viability	> 78%
CC(C)C[C@H](NC(=O)[C@H](CCCCN)NC(=O)[C@H](CC(C)C)NC(=O)[C@H](CC(C)C)NC(=O)[C@H](CCCCN)NC(=O)[C@H](CCCCN)NC(=O)[C@H](CC(C)C)NC(=O)[C@H](CC(C)C)NC(=O)[C@H](CCCCN)NC(=O)[C@H](CC(C)C)NC(=O)[C@H](CC(C)C)NC(=O)[C@H](CCCCN)NC(=O)[C@H](CCCCN)NC(=O)[C@H](CC(C)C)NC(=O)[C@@H](N)CSSC[C@H](N)C(=O)N[C@@H](CC(C)C)C(=O)N[C@@H](Cc1c[nH]cn1)C(=O)N[C@@H](CCC(=O)O)C(=O)N[C@@H](CC(C)C)C(=O)N[C@@H](CC(C)C)C(=O)N[C@@H](CCC(=O)O)C(=O)N[C@@H](Cc1c[nH]cn1)C(=O)N[C@@H](CC(C)C)C(=O)N[C@@H](Cc1c[nH]cn1)C(=O)N[C@@H](CCC(=O)O)C(=O)N[C@@H](CC(C)C)C(=O)N[C@@H](CC(C)C)C(=O)N[C@@H](CCC(=O)O)C(=O)N[C@@H](Cc1c[nH]cn1)C(N)=O)C(N)=O	mouse erythrocytes			200 µM, 1 h, 37 °C	relative to: Triton X-100	hemolysis	~22.2%
Cc1c(Br)cnc2c1NC(=O)c1cccnc1N2C1CC1	primary human hepatocytes	CYP3A4 activity, inducer		100 µM, 72 h, added: midazolam 1'-hydroxylation	relative to: untreated	fold change	no effect
CC[C@@H](C)[C@@H](NC(=O)[C@@H](CCCCN)NC(=O)[C@H](NC(=O)[C@@H](Cc1c[nH]c2ccccc12)NC(=O)[C@@H](Cc1ccccc1)NC(=O)[C@@H](CCC(N)=O)NC(=O)[C@@H](CC(N)=O)NC(=O)[C@@H](CCCNC(=N)N)NC(=O)[C@@H](CCCNC(=N)N)NC(=O)[C@@H](CCSC)NC(=O)[C@@H](CCCCN)NC(=O)[C@@H](Cc1c[nH]c2ccccc12)NC(=O)[C@@H](CCCCN)NC(=O)[C@@H](CCCCN)NC(=O)CNC(=O)[C@@H](CCCCN)NC(=O)CNC(=O)[C@@H](CCC(N)=O)NC(=O)[C@@H](Cc1c[nH]cn1)NC(=O)[C@H](N)CCCNC(=N)N)[C@H](C)CC)C(=O)N[C@H](CCC(N)=O)C(=O)N[C@H](CCCNC(=N)N)C(=O)O	16HBE14o- with CF sputum	item: cAMP		25 µM, added: neutrophil elastase 20 µg/mL		remaining activity	72%
COc1ccc(Nc2c(NC3CCN(Cc4ccccc4)CC3)c(=O)c2=O)cc1OC	SH-SY5Y	MTT		12.5 µM, 24 h		viability	79.3 ± 2.57%
Cc1cc(C)cc([C@H]2C[C@@H]2C(=O)N[C@@H](C(=O)NCc2ccccc2)c2ccc(C)c(C)c2)c1	BHK-21	cell growth or viability, MTT		24 h		CC50	> 100 µM
COc1cccc(CCNc2c(NC3CCN(Cc4ccccc4)CC3)c(=O)c2=O)c1	SH-SY5Y	MTT		6.25 µM, 24 h		viability	90.6 ± 2.06%
CSCC[C@H](NC(=O)[C@H](CC(N)=O)NC(=O)[C@@H](N)Cc1ccccc1)C(=O)N[C@@H](CCC(N)=O)C(=O)N[C@@H](C)C(=O)N[C@@H](CCC(N)=O)C(=O)N[C@@H](CCCNC(=N)N)C(=O)N[C@@H](CCCNC(=N)N)C(=O)N[C@@H](Cc1ccccc1)C(=O)N[C@@H](Cc1ccc(O)cc1)C(=O)N[C@@H](CCC(=O)O)C(=O)N[C@@H](C)C(=O)N[C@@H](CC(C)C)C(=O)N[C@@H](Cc1c[nH]cn1)C(=O)N[C@@H](CC(=O)O)C(=O)NCC(=O)NCC(=O)NCC(=O)NCC(=O)N[C@@H](CO)C(=O)N[C@@H](C)C(=O)N[C@@H](CCC(=O)O)C(=O)N[C@@H](C)C(=O)N[C@@H](CCC(=O)O)C(=O)N[C@@H](C)C(=O)N[C@@H](CCCCN)C(=O)N[C@@H](C)C(=O)N[C@@H](CCCCN)C(=O)N[C@@H](C)C(=O)N[C@@H](CCC(=O)O)C(=O)N[C@@H](C)C(=O)N[C@@H](CCC(=O)O)C(=O)N[C@@H](C)C(=O)N[C@@H](CCCCN)C(=O)N[C@@H](C)C(=O)N[C@@H](CCCCN)C(=O)O	mouse splenocytes			1 or 10 µg in 1 mL		IL-6 production	not detected
Cc1cccc2c1NC(=O)C2=Cc1ccc(-c2cccc(C(=O)N3CCCN(C)CC3)c2)o1 (mixture of isomers)	MDCK-MDR1 cells					efflux ratio	1.61
COc1ccc(CNc2c(NC3CCN(Cc4ccccc4)CC3)c(=O)c2=O)cc1OC	SH-SY5Y	MTT		6.25 µM, 24 h		viability	105.6 ± 0.67%
CCn1c(NN)nc2cc3ccccc3cc2c1=O	BGM	morphology and trypan blue		72 h		maximum non-toxic concentration	55 µg/mL
